Published values from different studies.
Protocols differ between the studies behind these lines. Values joined by “and” are separate records of one study, mostly repeats; a detail may differ.
Proline--tRNA ligase: Proline--tRNA ligase (Plasmodium falciparum, UniProt Q8I5R7)
BIRC2 BIR3 domain: Baculoviral IAP repeat-containing protein 2, BIR3 domain (BIRC2, Homo sapiens, UniProt Q13490)
NOS3: Nitric oxide synthase 3 (NOS3, Bos taurus, UniProt P29473)
CA9: Carbonic anhydrase 9 (CA9, Homo sapiens, UniProt Q16790)
HDAC2: Histone deacetylase 2 (HDAC2, Homo sapiens, UniProt Q92769)

SMILES | target | test | test system | setting | scale | selectivity ratio
COc1cncc(-c2cc(F)cc(CNC(=O)c3cc(N4CC[C@@](C#N)(C5CC5)C4=O)cc(C)n3)c2)c1 | Proline--tRNA ligase | binding, microscale thermophoresis | – | – | relative to: human over P. falciparum Kd | 0.1
CN[C@@H](C)C(=O)N[C@H]1CN(C(=O)Cc2ccccc2)CC[C@H]2CC[C@@H](C(=O)NCc3cccc(F)c3)N2C1=O | BIRC2 BIR3 domain | fluorescence polarization | – | – | relative to: Ki XIAP over Ki cIAP1 | 53
CN(C)CCN(Cc1ccncc1)Cc1c(Cl)cccc1Cl | Sodium-dependent noradrenaline transporter (SLC6A2, Homo sapiens, UniProt P23975) | binding | – | – | relative to: Ki SERT over NET | < 2 fold
CN[C@@H](C)C(=O)N[C@H]1CN(C(=O)Cc2ccccc2)CC[C@H]2CC[C@@H](C(=O)NCc3cccc(Cl)c3)N2C1=O | BIRC2 BIR3 domain | fluorescence polarization | – | – | relative to: Ki XIAP over Ki cIAP1 | 68
Cc1cc(N)nc(CC2CNCC2OCCNCC(F)(F)c2ccc(F)cc2)c1 (stereo not shown) | NOS3 | hemoglobin capture | – | – | relative to: Ki eNOS over Ki nNOS | 190
COc1cc(-c2ccnc3nc(Nc4ccc(S(N)(=O)=O)cc4)nn23)cc(OC)c1OC | CA9 | inhibitor | – | – | relative to: Ki hCA I over Ki CA9 | 16.7
O=C(O)C(=O)O.O=C(c1ccc(NCCF)cc1)C1CCN(C2Cc3ccccc3CC2O)CC1 (single isomer, unassigned; (+)) | sigma-1 receptor and VAChT | binding | guinea pig | – | relative to: Ki VAChT over Ki sigma-1 | 541
Cc1cc(N2CC[C@](C#N)(C3(C)CC3)C2=O)cc(C(=O)NCc2cc(F)cc(-c3cnn(C)c3)c2)n1 | Proline--tRNA ligase | aminoacylation activity, inhibitor, malachite green | – | – | relative to: human over P. falciparum IC50 | ~1 and 1.1
Cc1cc(N)nc(C[C@@H]2CNC[C@@H]2OCCC/C=C/c2cccc(F)c2)c1 | NOS3 | enzyme activity, inhibitor | – | – | relative to: Ki NOS3 over Ki nNOS | 121
CN[C@@H](C)C(=O)N[C@H]1CN(C(=O)Cc2ccccc2)CC[C@H]2CC[C@@H](C(=O)NCc3ccc(C)cc3)N2C1=O | BIRC2 BIR3 domain | fluorescence polarization | – | – | relative to: Ki XIAP over Ki cIAP1 | 613
Cc1cc(CN(CCCCCCC(=O)NO)Cc2ccc(F)c(C)c2)ccc1F | HDAC2 | deacetylase activity, inhibitor, fluorescence | – | together with: Boc-Lys(Ac)-AMC substrate | relative to: IC50 HDAC2 over IC50 HDAC1 | 4.4
CC(C)C[C@@H](CN[C@@H](Cc1ccc(Cl)cc1)C(N)=O)NC(=O)[C@H](Cc1c[nH]cn1)NC(=O)CNC(=O)[C@@H](NC(=O)[C@H](C)NC(=O)[C@H](Cc1c[nH]c2ccccc12)NC(=O)[C@H](CCC(N)=O)NC(=O)[C@H](N)Cc1ccccc1)C(C)C | Gastrin-releasing peptide receptor (GRPR, Homo sapiens, UniProt P30550) | binding, radioligand binding | transfected BALB/3T3 | – | relative to: GRPR over NMBR affinity | > 7400 fold
CN[C@@H](C)C(=O)N[C@H]1CN(C(=O)Cc2ccccc2)CC[C@H]2CC[C@@H](C(=O)NCc3ccc(C(C)C)cc3)N2C1=O | BIRC2 BIR3 domain | fluorescence polarization | – | – | relative to: Ki XIAP over Ki cIAP1 | 444
O=C(CCCCCCNCc1ccc2c(c1)OCO2)NO | HDAC2 | deacetylase activity, inhibitor, fluorescence | – | together with: Boc-Lys(Ac)-AMC substrate | relative to: IC50 HDAC2 over IC50 HDAC1 | 6.5
CN[C@@H](C)C(=O)N[C@H]1CN(C(=O)Cc2ccccc2)CC[C@H]2CC[C@@H](C(=O)NCc3ccccc3)N2C1=O | BIRC2 BIR3 domain | fluorescence polarization | – | – | relative to: Ki XIAP over Ki cIAP1 | 69
O=C(CCCCCCN(Cc1cccnc1)Cc1cccnc1)NO | HDAC2 | deacetylase activity, inhibitor, fluorescence | – | together with: Boc-Lys(Ac)-AMC substrate | relative to: IC50 HDAC2 over IC50 HDAC1 | 8.3
NS(=O)(=O)c1ccc(Nc2nc3nccc(-c4ccc5ccccc5c4)n3n2)cc1 | CA9 | inhibitor | – | – | relative to: Ki hCA I over Ki CA9 | 102
COc1ccc(CNCCCCCCC(=O)NO)cc1OC | HDAC2 | deacetylase activity, inhibitor, fluorescence | – | together with: Boc-Lys(Ac)-AMC substrate | relative to: IC50 HDAC2 over IC50 HDAC1 | 8.6
CN[C@@H](C)C(=O)N[C@H]1CN(C(=O)Cc2ccccc2)CC[C@H]2CC[C@@H](C(=O)NCc3ccccc3F)N2C1=O | BIRC2 BIR3 domain | fluorescence polarization | – | – | relative to: Ki XIAP over Ki cIAP1 | 56
N=C(N)NCCC[C@@H]1NC(=O)[C@H](Cc2c[nH]c3ccccc23)NC(=O)[C@H](CCCNC(=N)N)NC(=O)[C@H](Cc2c[nH]c3ccccc23)NC(=O)[C@H](CCCNC(=N)N)NC(=O)[C@H](Cc2c[nH]c3ccccc23)NC(=O)[C@H](CCCNC(=N)N)NC(=O)[C@H](Cc2c[nH]c3ccccc23)NC(=O)[C@H](CCCNC(=N)N)NC(=O)[C@H](Cc2c[nH]c3ccccc23)NC(=O)[C@H](CCCNC(=N)N)NC(=O)[C@H](Cc2c[nH]c3ccccc23)NC(=O)[C@H](CCCNC(=N)N)NC(=O)[C@H](Cc2c[nH]c3ccccc23)NC(=O)[C@H](CCCNC(=N)N)NC(=O)[C@H](Cc2c[nH]c3ccccc23)NC(=O)[C@H](CCCNC(=N)N)NC(=O)[C@H](Cc2c[nH]c3ccccc23)NC1=O | Proto-oncogene tyrosine-protein kinase Src (SRC, Homo sapiens, UniProt P12931) | enzyme activity | – | – | relative to: IC50 Lck over IC50 SRC | 12
CN(C)CCNC(=O)c1cccc2c(NCCCCc3c(N)nc(N)nc3N)c3ccccc3nc12 | RNA B, slipped CCUG motif | binding, ITC | – | – | relative to: Kd RNA A over Kd RNA B | 0.04
O=C(c1ccccc1)c1cc(O)c(-c2cc(Cl)cc(Cl)c2)c(O)c1 | Cannabinoid receptor 2 (CNR2, Homo sapiens, UniProt P34972) | – | – | – | relative to: Ki CB1 over Ki CB2 | 39.4
N[C@@H](CCC(=O)N[C@@H](CS[Se]Cc1ccc(-c2cccc(C(O)c3ccc(Cl)c(Cl)c3)c2)cc1)C(=O)NCC(=O)O)C(=O)O (stereo partly shown) | Tyrosine-protein phosphatase non-receptor type 7 (PTPN7, Homo sapiens, UniProt P35236) | enzyme activity | – | together with: pNPP, GSH 1 mM | relative to: IC50 PTPN7 over STEP | 1.7
CN[C@@H](C)C(=O)N[C@H]1CN(C(=O)Cc2ccccc2)CC[C@H]2CC[C@@H](C(=O)NCc3ccccc3Br)N2C1=O | BIRC2 BIR3 domain | fluorescence polarization | – | – | relative to: Ki XIAP over Ki cIAP1 | 65
Cc1cc(N)nc(C[C@H]2CNC[C@H]2OCCCCCc2cccc(F)c2)c1 | NOS3 | enzyme activity, inhibitor | – | – | relative to: Ki NOS3 over Ki nNOS | 4

A few entries again:
SMILES | target | test | test system | setting | scale | selectivity ratio
Cc1cc(N)nc(C[C@H]2CNC[C@H]2OCCCCCc2cccc(F)c2)c1 | NOS3 | enzyme activity, inhibitor | – | – | relative to: Ki NOS3 over Ki nNOS | 4
CC(C)C[C@@H](CN[C@@H](Cc1ccc(Cl)cc1)C(N)=O)NC(=O)[C@H](Cc1c[nH]cn1)NC(=O)CNC(=O)[C@@H](NC(=O)[C@H](C)NC(=O)[C@H](Cc1c[nH]c2ccccc12)NC(=O)[C@H](CCC(N)=O)NC(=O)[C@H](N)Cc1ccccc1)C(C)C | Gastrin-releasing peptide receptor (GRPR, Homo sapiens, UniProt P30550) | binding, radioligand binding | transfected BALB/3T3 | – | relative to: GRPR over NMBR affinity | > 7400 fold
CN[C@@H](C)C(=O)N[C@H]1CN(C(=O)Cc2ccccc2)CC[C@H]2CC[C@@H](C(=O)NCc3ccccc3F)N2C1=O | BIRC2 BIR3 domain | fluorescence polarization | – | – | relative to: Ki XIAP over Ki cIAP1 | 56
CN(C)CCNC(=O)c1cccc2c(NCCCCc3c(N)nc(N)nc3N)c3ccccc3nc12 | RNA B, slipped CCUG motif | binding, ITC | – | – | relative to: Kd RNA A over Kd RNA B | 0.04
